# Experimental data pooled from the literature.
# ± marks the error that the study gave.
# Target: ATP-dependent translocase ABCB1 (ABCB1, Homo sapiens, UniProt P08183)
# Sequence of UniProt P08183 (whole entry, looked up): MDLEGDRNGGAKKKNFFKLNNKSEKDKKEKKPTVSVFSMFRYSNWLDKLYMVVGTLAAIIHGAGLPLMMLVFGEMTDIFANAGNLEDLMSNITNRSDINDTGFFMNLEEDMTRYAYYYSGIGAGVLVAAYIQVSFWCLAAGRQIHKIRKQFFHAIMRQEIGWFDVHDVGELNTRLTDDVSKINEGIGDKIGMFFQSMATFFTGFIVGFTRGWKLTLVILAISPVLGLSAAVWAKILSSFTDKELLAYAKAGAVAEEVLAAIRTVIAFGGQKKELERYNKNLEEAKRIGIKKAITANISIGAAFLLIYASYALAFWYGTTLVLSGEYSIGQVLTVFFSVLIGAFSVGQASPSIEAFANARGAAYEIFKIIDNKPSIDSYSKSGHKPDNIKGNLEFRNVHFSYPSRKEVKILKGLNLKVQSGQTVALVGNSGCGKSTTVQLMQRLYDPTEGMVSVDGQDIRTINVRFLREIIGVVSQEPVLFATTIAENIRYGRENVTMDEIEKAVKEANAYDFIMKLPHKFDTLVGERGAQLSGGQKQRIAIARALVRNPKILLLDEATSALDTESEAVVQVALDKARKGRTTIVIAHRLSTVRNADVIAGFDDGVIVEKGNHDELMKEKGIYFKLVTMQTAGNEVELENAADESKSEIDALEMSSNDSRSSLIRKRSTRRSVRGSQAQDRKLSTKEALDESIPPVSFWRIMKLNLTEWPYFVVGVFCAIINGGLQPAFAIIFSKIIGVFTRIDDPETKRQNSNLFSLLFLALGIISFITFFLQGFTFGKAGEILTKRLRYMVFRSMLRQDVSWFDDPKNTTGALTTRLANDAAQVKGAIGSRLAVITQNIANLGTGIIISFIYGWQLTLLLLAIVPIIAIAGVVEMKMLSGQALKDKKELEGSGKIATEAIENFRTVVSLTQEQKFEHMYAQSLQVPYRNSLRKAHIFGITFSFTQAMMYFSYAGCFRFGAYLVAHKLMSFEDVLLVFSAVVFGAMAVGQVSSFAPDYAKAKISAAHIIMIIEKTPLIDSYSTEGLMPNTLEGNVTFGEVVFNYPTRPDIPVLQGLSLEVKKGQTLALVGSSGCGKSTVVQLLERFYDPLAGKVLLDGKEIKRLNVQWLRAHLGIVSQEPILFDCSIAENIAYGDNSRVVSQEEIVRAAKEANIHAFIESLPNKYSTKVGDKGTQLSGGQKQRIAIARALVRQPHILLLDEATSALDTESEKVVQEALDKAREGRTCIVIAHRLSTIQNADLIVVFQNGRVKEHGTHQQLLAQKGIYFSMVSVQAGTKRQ
SMILES,assay,test system,conditions,scale,measurement,result
N#Cc1nc(N2CCOCC2)nc(N(Cc2ccc(F)cc2)CC2CCCNC2)n1 (stereo not shown),substrate,MDCKII-MDR1,"1 µM, 4 h",,Papp A-B,25.9 ×10⁻⁶ cm/s
CC(C)C(=O)Cc1c(OCC(O)C(C)(C)O)ccc2ccc(=O)oc12 (stereo not shown),"inhibitor, rhodamine 123 retention",COLO 320 and COLO 205,"20 µM, together with: rhodamine 123 5.2 µM","relative to: COLO 320 over COLO 205, higher = stronger inhibition",fluorescence activity ratio,1.85
COc1cc(/C=C/C(=O)c2ccc3c(c2)OCO3)ccc1OCc1ccccc1,"mitoxantrone efflux, flow cytometry",,10 µM,,inhibition,no inhibition
OCCc1ccc(O)c(-c2cc(CCO)ccc2O)c1,rhodamine 123 efflux,,50 µM,relative to: GF120918 0.5 µM,inhibition,-0.5 ± 1.5%
C[C@H]1C(OC(=O)N(C)C)O[C@@H]2O[C@@]3(C)CC[C@H]4[C@H](C)CCC1[C@@]24OO3 (stereo partly shown),"calcein-AM efflux, inhibitor, flow cytometry",CEM/ADR5000,"30 min, together with: calcein-AM 1 µM",relative to: untreated,maximal effect,3340%
Cn1ccc2cc(-n3c(=O)[nH]c4sc5c(c4c3=O)CCCC5)ccc21,,MDCK-MDR1,5 µM,,Papp B→A,66.2 ×10⁻⁶ cm/s
COc1cc(/C=C/C(=O)c2ccc(Br)cc2)ccc1OCc1ccccc1,"mitoxantrone efflux, flow cytometry",,10 µM,,inhibition,no inhibition
CC(C)C(=O)OC1O[C@@H]2O[C@@]3(C)CC[C@H]4[C@H](C)CCC([C@H]1C)[C@@]24OO3 (stereo partly shown),"calcein-AM efflux, inhibitor, flow cytometry",CEM/ADR5000,"30 min, together with: calcein-AM 1 µM",relative to: untreated,maximal effect,1240 ± 78.2%
COc1cc(CCOC(C)=O)cc(-c2cc(CCOC(C)=O)cc(OC)c2O)c1O,rhodamine 123 efflux,,10 µM,relative to: GF120918 0.5 µM,inhibition,0.3 ± 0.6%
CCCC(CCC)C(=O)OC1O[C@@H]2O[C@@]3(C)CC[C@H]4[C@H](C)CCC([C@H]1C)[C@@]24OO3 (stereo partly shown),"calcein-AM efflux, inhibitor, flow cytometry",CEM/ADR5000,"30 min, together with: calcein-AM 1 µM",relative to: untreated,maximal effect,2220 ± 94.7%
COc1cc(CCOC(C)=O)cc(-c2cc(CCOC(C)=O)cc(O)c2O)c1O,rhodamine 123 efflux,,10 µM,relative to: GF120918 0.5 µM,inhibition,-0.6 ± 1.4%
CC1(C)OC(=O)C[C@H](O)[C@]2(C)[C@H]3CC[C@@]4(C)[C@H](c5ccoc5)OC(=O)[C@H]5O[C@]54[C@]3(C)C(=O)C[C@@H]12,"inhibitor, rhodamine 123 retention",COLO 320 and COLO 205,"2 µM, together with: rhodamine 123 5.2 µM","relative to: COLO 320 over COLO 205, higher = stronger inhibition",fluorescence activity ratio,1.01
Cc1cccc(C)c1OCC(=O)N[C@@H](Cc1ccccc1)[C@H](C[C@H](Cc1ccccc1)NC(=O)[C@H](C(C)C)N1CCCNC1=O)OC(=O)[C@H](CC(C)C)NC(=O)[C@@H](N)Cc1cnc[nH]1,,"MDCK-MDR1, Caco-2",,,Papp A→B,6.72 ×10⁻⁶ cm/s
CC(=O)OCCc1ccc(O)c(-c2cc(CCOC(C)=O)ccc2O)c1,rhodamine 123 efflux,,50 µM,relative to: GF120918 0.5 µM,inhibition,-0.1 ± 1.6%
C[C@H]1C(NCCS)O[C@@H]2O[C@@]3(C)CC[C@H]4[C@H](C)CCC1[C@@]24OO3 (stereo partly shown),"transport inhibition, inhibitor, flow cytometry",CEM/ADR5000 leukaemia,together with: calcein-AM 1 µM,,EC50,27.2 ± 4.69 µM
CC(C)=CCc1c(OCC2OC2(C)C)ccc2ccc(=O)oc12 (stereo not shown),"inhibitor, rhodamine 123 retention",COLO 320 and COLO 205,"20 µM, together with: rhodamine 123 5.2 µM","relative to: COLO 320 over COLO 205, higher = stronger inhibition",fluorescence activity ratio,4.86
CC(=O)OCCc1cc(O)c(O)c(-c2cc(CCOC(C)=O)cc(O)c2O)c1,rhodamine 123 efflux,,10 µM,relative to: GF120918 0.5 µM,inhibition,0 ± 2.3%
C[C@H]1C(OC(=O)c2ccccc2)O[C@@H]2O[C@@]3(C)CC[C@H]4[C@H](C)CCC1[C@@]24OO3 (stereo partly shown),"calcein-AM efflux, inhibitor, flow cytometry",CEM/ADR5000,"30 min, together with: calcein-AM 1 µM",relative to: untreated,maximal effect,2640 ± 424%
CC(C)CCN(c1nc(C#N)nc(NC2COC2)n1)C(C)c1ccc(F)cc1 (stereo not shown),substrate,MDCKII-MDR1,"1 µM, 4 h",,Papp A-B,35.5 ×10⁻⁶ cm/s

# Some of these lines once more:
SMILES,assay,test system,conditions,scale,measurement,result
COc1cc(/C=C/C(=O)c2ccc3c(c2)OCO3)ccc1OCc1ccccc1,"mitoxantrone efflux, flow cytometry",,10 µM,,inhibition,no inhibition
C[C@H]1C(OC(=O)c2ccccc2)O[C@@H]2O[C@@]3(C)CC[C@H]4[C@H](C)CCC1[C@@]24OO3 (stereo partly shown),"calcein-AM efflux, inhibitor, flow cytometry",CEM/ADR5000,"30 min, together with: calcein-AM 1 µM",relative to: untreated,maximal effect,2640 ± 424%
